Results collected from several papers.
A part holds a random share of what one study measured. Positions count from the first letter of the parent shown.

Block 1
Target: BATF2, bZIP domain (human)
Method: DHFR protein complementation
Matrix: yeast
Setting: single substitutions, most at no-binding floor
Relative to: wild-type JUN-FOS pair
Direction: higher = stronger binding
Starting sequence: JUN, bZIP domain (human); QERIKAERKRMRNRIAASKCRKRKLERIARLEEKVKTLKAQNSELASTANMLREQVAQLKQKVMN; partner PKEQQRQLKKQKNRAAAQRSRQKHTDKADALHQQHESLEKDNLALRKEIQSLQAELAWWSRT
Change | binding fitness [natural log]
L59R | -1.23
E54R | -0.472
Q41G | -1.27
R30S | -0.158
A40M | -0.377
A29H | -0.397
T37E | -0.135
K39N | -0.748
L45R | -1.36
I28G | -0.541
N42V | -1.36
R30H | -0.185
K36H | -0.326
E44M | -0.305
E32S | -0.511
A46Y | -0.5
K39Q | -0.333
L38Y | -1.41
L38V | -0.947
L52R | -1
V56P | -1.26
N42P | -1.4

Block 2
Target: Ras GTPase-activating protein-binding protein 1, full length (G3BP1, Homo sapiens, UniProt Q13283)
Sequence of UniProt Q13283 (whole entry, looked up): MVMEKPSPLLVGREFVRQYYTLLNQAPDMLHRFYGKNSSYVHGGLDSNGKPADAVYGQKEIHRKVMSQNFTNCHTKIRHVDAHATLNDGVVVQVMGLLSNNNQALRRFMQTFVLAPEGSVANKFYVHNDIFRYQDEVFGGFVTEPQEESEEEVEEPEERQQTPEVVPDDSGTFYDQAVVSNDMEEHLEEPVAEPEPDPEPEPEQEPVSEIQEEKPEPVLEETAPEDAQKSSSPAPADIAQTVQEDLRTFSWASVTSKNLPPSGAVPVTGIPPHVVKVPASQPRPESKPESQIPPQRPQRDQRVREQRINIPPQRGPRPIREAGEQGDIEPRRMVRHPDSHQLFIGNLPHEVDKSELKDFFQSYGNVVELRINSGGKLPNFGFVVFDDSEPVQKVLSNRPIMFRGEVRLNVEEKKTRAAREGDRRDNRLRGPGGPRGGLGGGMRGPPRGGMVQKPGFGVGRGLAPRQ
Method: RNA Bind-n-Seq
Molecule type: RNA
Matrix: in vitro
Concentration: 200 nM
Setting: whole 134-nt RNA, ends assumed
Added: 150 mM LiCl
Relative to: input library
Direction: higher = stronger binding
All molecules: 7-deaza-guanosine replaces G
All sequences stand within: GGGAGUUCUACAGUCCGACGAUC … UGGAAUUCUCGGGUGUCAAGG
Oligonucleotide | log2 enrichment
UUCGUUUUUUUCCUUAGUCUGAAGUUGCAGCCGGAGUGAAGAAGAGCGGACCGCUGCCCAGUGCUGAGGUAGAGUGUCGGAUCUGUUUUC | -0.861
GUCCUGUGCUACACAUCGUAUGUACCGAAUCGGGGAAAAAAAGGGGUGGGGUUUGGGGAAAGUAUUAUGUUACGCCGUUCGGAUCUGCAC | -0.353
GCAGGAAGUAAAAACAAAUGGAAAUGCUUCGGAUAGUGGCAGGGGUGGGGGUUGCUAAGGAAAGGGUGGGAUGGGAGUGGAAAAAGAGUU | 0.0636
UCCCUAUUCCAGUCAUACACGUGGACCUAACUGCACCAGUAGCUUUUCUGAGAAUACUUGCUGAAAAGGAAGUUUUCUGGAAUGGGUAAG | -0.229
UGGCCCUGGUGGCAUGCGGGGAGGAAGAGGUGGCCCCAUGGAUCGUGGUGGUCCCGGUGGAAUGUUCAGAGGUGGCCGUGGUGGAGACAG | 0.14
CAAGUCCUGUGCUACACAUCGUAUGUACCGAAUCGGGUGGGUUUUUGGGUUUGGGAAAGUAUUAUGUUACGCCGUUCGGAUCUGCACUUC | -0.951
CCUGUGCUACACAUCGUAUGUACCGAAUCGGGGAAAAAAGGGAAAAAAGGAAAAAAGGGGAAAGUAUUAUGUUACGCCGUUCGGAUCUGC | 0.557
CAAGUCCUGUGCUACACAUCGUAUGUACCGAAUCGGAAAAAAAGGUGGAAAAAGGAAAGUAUUAUGUUACGCCGUUCGGAUCUGCACUUC | -0.923

Block 3
Target: RNA binding protein fox-1 homolog 2, RRM domain, GST-SBP tag (RBFOX2, Homo sapiens, UniProt O43251-10, residues 100-194)
Method: RNA Bind-n-Seq
Molecule type: RNA
Matrix: in vitro
Concentration: 365 nM
Setting: natural RNA segment, single round, ends assumed
Relative to: no-protein control
Direction: higher = stronger binding
All sequences stand within: GGGAGUUCUACAGUCCGACGAUC … UGGAAUUCUCGGGUGCCAA
Target sequence (chain): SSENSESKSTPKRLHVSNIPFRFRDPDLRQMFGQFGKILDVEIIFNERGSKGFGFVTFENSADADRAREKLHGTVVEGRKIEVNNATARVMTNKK
Oligonucleotide | RBNS enrichment (R)
CCAGUGUUCUGUUAAUAUUAUUUGUAAUUUAGUUUGUAAAUUCAUUAAAAGAAAAUAUUCUCAGCUGAGAGUGAAUCUCUUUCAUAUUUAUCCUUCAUUUAUUUUUUUAC | 1.26
AUGGAGGCCCCUUCCUGCUGACCUUGCACGCGAGGGAUGCUACUAGGGACUGCUGGGGAUCUUUUCUUUCUUUCCUUCAGUAUUUGGUACUUUACCAGAGAGGUGUACAU | 0.343
CCGCACCAGAGCCACGGGCUGUGGGGCGGGGAGCCCUCCCCCGCUGCAGCCCUCUCAGAACAGAGGGGUAGGGAGGGUGCACCAGUGCACCAGGAAGGCUGUGUGGGUCU | 0.297
UAAAUGAGGAGGGAGAAGAUAAAGGAAACUUCUAGCCCCUGUCCUUAGUGCUUUGAGGAUUUUAUUUUCUCCCUUACUACGCUUGCUUGACGUCACUCUCUCUCGACCUC | 1.07
UUUGACUUCCUCUUUUCCUAAUUGAAUACCCUUUAUUUCCUUCUCCUGCCUAAUUGCCCUGGCCAGAACUUCCAACACUAUGUUGAAUACGAGUGGUGAGAGAGGGCAUC | 0.669
UUGUAGGAUCUGCUAGGACCCUGCAGCUGUGCUGCCGCCACCUCUGCUCCAGAGUGUCCCAGCCAACCCUCGGAAGAUGGGAUUGCCAGUCAGCCCUGCCUCACCAUGCC | 0.215
UCACUGGGAGAUUUUGUAUAUAUUCUUUUAUUAUUAGAUUGAGUUGGGUGUGGGGAAAAAUUUUUUUCUGAAGGCUCAAAAGUGGUUUCCUAAAAGUGAGCCACUAUCAG | 0.509
UAAAUGGAAAAAAAAAUAAAACUACAACAAGCCUACCUUUUAUAACUGGGUGUUUAGUGCUAAACAGCCAGAACCACAGAGACAGUAUUGUAUGACCAAAGCAUUUGAUG | 0.44

Block 4
Target: CCNE2, cyclin fold, Cln2 fusion (human)
Method: yeast growth competition, sequencing
Matrix: yeast
Setting: weak parent motif
Relative to: not given
Direction: higher = stronger binding
Starting sequence: E2F8 docking peptide (human); FVPQRKLEVSTED
Change | normalised enrichment score
FVPQRKLAVSTED [E8A] | -0.162
FVPQRKLEASTED [V9A] | -0.397
FVPQKKLEVSTED [R5K] | 0.104
FVPQKKLELSTED [R5K V9L] | -0.102
FVAQRKLEVSTED [P3A] | 0.241
FVPARKLEVSTED [Q4A] | -0.949
FVPQRKLEVSAED [T11A] | -0.377
FVPQAKLEVSTED [R5A] | 0.107
FVPQRKLEVSTAD [E12A] | -0.0779
FVPQAKAEVSTED [R5A L7A] | -0.391
FVPQRKLEFSTED [V9F] | 0.125

A few entries again (block 4):
Change | normalised enrichment score
FVPQRKLEVSAED [T11A] | -0.377
FVPQAKAEVSTED [R5A L7A] | -0.391
FVPQAKLEVSTED [R5A] | 0.107
FVPARKLEVSTED [Q4A] | -0.949
FVPQKKLEVSTED [R5K] | 0.104
